Results gathered from unrelated publications.
Each numbered part is a random draw from the data of one study; scales do not carry over between parts.
UniProt Q14004, sequence (whole entry, looked up): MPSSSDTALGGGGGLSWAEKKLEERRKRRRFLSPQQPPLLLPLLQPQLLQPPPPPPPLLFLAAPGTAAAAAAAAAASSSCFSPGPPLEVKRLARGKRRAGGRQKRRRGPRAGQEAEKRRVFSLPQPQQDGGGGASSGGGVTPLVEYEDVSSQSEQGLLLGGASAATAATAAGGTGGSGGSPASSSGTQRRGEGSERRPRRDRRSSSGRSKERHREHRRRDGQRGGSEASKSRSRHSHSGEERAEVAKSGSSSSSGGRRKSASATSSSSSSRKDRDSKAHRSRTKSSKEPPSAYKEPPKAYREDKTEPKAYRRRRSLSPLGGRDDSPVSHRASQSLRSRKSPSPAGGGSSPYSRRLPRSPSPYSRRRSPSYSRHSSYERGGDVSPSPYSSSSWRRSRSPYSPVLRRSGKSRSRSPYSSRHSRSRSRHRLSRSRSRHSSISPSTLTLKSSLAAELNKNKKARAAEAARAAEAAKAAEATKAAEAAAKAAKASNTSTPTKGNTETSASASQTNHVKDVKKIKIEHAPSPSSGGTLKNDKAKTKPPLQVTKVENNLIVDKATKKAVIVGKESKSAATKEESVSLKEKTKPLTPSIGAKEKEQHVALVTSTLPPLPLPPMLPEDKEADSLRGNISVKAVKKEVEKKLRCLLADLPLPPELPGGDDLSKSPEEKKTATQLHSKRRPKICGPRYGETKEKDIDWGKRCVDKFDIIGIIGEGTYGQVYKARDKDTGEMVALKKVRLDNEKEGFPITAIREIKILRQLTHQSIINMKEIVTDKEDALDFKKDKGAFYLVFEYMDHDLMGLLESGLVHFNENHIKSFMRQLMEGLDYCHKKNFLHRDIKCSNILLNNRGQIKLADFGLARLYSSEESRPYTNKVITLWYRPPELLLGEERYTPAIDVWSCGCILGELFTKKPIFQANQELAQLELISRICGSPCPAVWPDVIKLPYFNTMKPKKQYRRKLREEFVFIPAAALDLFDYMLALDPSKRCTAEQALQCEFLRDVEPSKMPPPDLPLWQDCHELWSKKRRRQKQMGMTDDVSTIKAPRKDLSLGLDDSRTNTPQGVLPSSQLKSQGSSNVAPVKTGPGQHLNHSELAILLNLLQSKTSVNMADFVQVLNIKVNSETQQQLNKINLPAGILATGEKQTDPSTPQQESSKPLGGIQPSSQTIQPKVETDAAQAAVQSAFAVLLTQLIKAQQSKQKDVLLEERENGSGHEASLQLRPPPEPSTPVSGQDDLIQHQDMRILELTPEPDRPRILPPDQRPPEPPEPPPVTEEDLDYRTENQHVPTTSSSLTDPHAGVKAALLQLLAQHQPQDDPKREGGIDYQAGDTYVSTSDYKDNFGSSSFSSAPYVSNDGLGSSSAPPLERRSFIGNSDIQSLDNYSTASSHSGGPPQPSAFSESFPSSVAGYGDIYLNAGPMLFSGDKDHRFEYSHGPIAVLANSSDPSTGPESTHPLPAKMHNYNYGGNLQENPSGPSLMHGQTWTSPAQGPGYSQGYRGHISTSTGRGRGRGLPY
UniProt Q9UPE1, sequence (whole entry, looked up): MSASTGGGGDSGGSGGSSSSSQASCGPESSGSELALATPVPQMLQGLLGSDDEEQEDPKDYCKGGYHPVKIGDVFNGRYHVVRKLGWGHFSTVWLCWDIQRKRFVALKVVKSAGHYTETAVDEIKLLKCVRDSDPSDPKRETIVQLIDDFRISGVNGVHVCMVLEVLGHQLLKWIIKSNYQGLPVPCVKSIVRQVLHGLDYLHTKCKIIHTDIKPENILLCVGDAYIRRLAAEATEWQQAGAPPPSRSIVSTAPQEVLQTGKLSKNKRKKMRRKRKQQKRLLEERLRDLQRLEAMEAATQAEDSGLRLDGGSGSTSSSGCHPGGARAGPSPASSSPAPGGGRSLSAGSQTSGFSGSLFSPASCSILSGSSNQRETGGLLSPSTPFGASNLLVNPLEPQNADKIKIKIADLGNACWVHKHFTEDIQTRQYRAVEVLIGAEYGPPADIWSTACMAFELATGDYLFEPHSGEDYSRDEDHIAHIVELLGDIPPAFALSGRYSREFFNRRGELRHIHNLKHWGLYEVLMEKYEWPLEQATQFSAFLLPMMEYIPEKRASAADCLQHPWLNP
UniProt Q9NWZ3, sequence (whole entry, looked up): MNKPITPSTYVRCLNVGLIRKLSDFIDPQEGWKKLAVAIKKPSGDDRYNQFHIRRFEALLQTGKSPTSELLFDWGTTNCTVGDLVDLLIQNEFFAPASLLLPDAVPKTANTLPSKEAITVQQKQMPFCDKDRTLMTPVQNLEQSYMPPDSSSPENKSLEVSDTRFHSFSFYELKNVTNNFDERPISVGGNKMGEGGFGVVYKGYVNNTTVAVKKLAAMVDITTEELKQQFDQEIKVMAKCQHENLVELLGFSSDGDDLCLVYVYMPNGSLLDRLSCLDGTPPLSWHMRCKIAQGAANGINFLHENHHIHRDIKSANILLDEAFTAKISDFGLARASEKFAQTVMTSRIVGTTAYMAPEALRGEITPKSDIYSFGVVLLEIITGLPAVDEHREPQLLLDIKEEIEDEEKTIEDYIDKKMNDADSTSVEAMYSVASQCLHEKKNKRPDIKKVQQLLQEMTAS

Sample 1
SMILES: C=CC(=O)N1CCC([C@@H]2CCNc3c(C(N)=O)c(-c4ccc(Oc5ccccc5)cc4)nn32)CC1
Concentration: 1 µM
| target | effect on | mode | inhibition [%] |
| --- | --- | --- | --- |
| Serine/threonine-protein kinase 38-like (STK38L, Homo sapiens, UniProt Q9Y2H1) | enzyme activity | inhibitor | 5 |
| Testis-specific serine/threonine-protein kinase 3 (TSSK3, Homo sapiens, UniProt Q96PN8) | enzyme activity | inhibitor | 0 |
| Cyclin-dependent kinase 13 (CDK13, Homo sapiens, UniProt Q14004) | enzyme activity | inhibitor | 0 |
| Wee1-like protein kinase 2 (WEE2, Homo sapiens, UniProt P0C1S8) | enzyme activity | inhibitor | 8 |
| Calcium-dependent protein kinase 1 (CDPK1, Plasmodium falciparum, UniProt P62344) | enzyme activity | inhibitor | 97 |
| Non-receptor tyrosine-protein kinase TYK2, JH1 domain (TYK2, Homo sapiens, UniProt P29597) |  | inhibitor | 1 |
| Interleukin-1 receptor-associated kinase 4 (IRAK4, Homo sapiens, UniProt Q9NWZ3) | enzyme activity | inhibitor | 3 |
| Dual serine/threonine and tyrosine protein kinase (DSTYK, Homo sapiens, UniProt Q6XUX3) | enzyme activity | inhibitor | 40 |
| Calcium/calmodulin-dependent protein kinase type 1B (PNCK, Homo sapiens, UniProt Q6P2M8) | cell-free assay |  | 0 |
| SRSF protein kinase 3 (SRPK3, Homo sapiens, UniProt Q9UPE1) | enzyme activity | inhibitor | 0 |

Sample 2
Target: STE20/SPS1-related proline-alanine-rich protein kinase (STK39, Homo sapiens, UniProt Q9UEW8)
Effect on: enzyme activity
Mode: inhibitor
Concentration: 0.5 µM
Reference: control
| Structure (SMILES) | remaining activity |
| --- | --- |
| COc1cc2ncnc(Nc3ccc(Oc4ccccc4)cc3)c2cc1OC | 102% |
| Nc1[nH]nc2nc3ccccc3nc12 | 116% |
| COc1ccc(CNC(=O)Nc2ncc([N+](=O)[O-])s2)cc1 | 96.4% |
| Cn1c2ccccc2c2c3c(c4c5ccccc5n(CCC#N)c4c21)CNC3=O | 96.7% |
| COc1cc2nccc(Oc3ccc(NC(=S)NC(=O)c4ccccc4C)cc3)c2cc1OC | 91.5% |
| CN(C)c1ccc(C=C2C(=O)Nc3ccccc32)cc1 | 96.6% |
| COc1cc2ncnc(Nc3ccc(F)c(Cl)c3)c2cc1OCCCN1CCOCC1 | 93.5% |
| COc1ccc(OC)c2c(=S)c3ccccc3[nH]c12 | 94.4% |
| O=C(Nc1cccc(Nc2cc(Nc3cccc(C(F)(F)F)c3)ncn2)c1)C1CC1 | 94.1% |
| COc1ccc(C(=O)Nc2sc3c(c2C(N)=O)CCCC3)cc1OC | 101% |
| CCOC(=O)c1c(C)[nH]c(/C=C2\C(=O)Nc3ccccc32)c1C | 85.1% |
| CC(C)[C@H](CO)Nc1nc(Nc2cc(N)cc(Cl)c2)c2ncn(C(C)C)c2n1 | 83.7% |
| NCCNc1ncc(C(N)=O)c(Nc2cccc(C(F)(F)F)c2)n1 | 83.9% |
| Cn1sc(=O)n(Cc2ccccc2)c1=O | 97.9% |
| Cc1cccc(-c2[nH]c(C(C)(C)C)nc2-c2ccc3c(c2)OCO3)n1 | 107% |
| Nc1ncnc2n[nH]c(Nc3ccc(F)cc3)c12 | 88.5% |

Sample 3
Target: DNA polymerase theta, ATPase domain (POLQ, Homo sapiens, UniProt O75417)
UniProt O75417, sequence (whole entry, unmodified, looked up): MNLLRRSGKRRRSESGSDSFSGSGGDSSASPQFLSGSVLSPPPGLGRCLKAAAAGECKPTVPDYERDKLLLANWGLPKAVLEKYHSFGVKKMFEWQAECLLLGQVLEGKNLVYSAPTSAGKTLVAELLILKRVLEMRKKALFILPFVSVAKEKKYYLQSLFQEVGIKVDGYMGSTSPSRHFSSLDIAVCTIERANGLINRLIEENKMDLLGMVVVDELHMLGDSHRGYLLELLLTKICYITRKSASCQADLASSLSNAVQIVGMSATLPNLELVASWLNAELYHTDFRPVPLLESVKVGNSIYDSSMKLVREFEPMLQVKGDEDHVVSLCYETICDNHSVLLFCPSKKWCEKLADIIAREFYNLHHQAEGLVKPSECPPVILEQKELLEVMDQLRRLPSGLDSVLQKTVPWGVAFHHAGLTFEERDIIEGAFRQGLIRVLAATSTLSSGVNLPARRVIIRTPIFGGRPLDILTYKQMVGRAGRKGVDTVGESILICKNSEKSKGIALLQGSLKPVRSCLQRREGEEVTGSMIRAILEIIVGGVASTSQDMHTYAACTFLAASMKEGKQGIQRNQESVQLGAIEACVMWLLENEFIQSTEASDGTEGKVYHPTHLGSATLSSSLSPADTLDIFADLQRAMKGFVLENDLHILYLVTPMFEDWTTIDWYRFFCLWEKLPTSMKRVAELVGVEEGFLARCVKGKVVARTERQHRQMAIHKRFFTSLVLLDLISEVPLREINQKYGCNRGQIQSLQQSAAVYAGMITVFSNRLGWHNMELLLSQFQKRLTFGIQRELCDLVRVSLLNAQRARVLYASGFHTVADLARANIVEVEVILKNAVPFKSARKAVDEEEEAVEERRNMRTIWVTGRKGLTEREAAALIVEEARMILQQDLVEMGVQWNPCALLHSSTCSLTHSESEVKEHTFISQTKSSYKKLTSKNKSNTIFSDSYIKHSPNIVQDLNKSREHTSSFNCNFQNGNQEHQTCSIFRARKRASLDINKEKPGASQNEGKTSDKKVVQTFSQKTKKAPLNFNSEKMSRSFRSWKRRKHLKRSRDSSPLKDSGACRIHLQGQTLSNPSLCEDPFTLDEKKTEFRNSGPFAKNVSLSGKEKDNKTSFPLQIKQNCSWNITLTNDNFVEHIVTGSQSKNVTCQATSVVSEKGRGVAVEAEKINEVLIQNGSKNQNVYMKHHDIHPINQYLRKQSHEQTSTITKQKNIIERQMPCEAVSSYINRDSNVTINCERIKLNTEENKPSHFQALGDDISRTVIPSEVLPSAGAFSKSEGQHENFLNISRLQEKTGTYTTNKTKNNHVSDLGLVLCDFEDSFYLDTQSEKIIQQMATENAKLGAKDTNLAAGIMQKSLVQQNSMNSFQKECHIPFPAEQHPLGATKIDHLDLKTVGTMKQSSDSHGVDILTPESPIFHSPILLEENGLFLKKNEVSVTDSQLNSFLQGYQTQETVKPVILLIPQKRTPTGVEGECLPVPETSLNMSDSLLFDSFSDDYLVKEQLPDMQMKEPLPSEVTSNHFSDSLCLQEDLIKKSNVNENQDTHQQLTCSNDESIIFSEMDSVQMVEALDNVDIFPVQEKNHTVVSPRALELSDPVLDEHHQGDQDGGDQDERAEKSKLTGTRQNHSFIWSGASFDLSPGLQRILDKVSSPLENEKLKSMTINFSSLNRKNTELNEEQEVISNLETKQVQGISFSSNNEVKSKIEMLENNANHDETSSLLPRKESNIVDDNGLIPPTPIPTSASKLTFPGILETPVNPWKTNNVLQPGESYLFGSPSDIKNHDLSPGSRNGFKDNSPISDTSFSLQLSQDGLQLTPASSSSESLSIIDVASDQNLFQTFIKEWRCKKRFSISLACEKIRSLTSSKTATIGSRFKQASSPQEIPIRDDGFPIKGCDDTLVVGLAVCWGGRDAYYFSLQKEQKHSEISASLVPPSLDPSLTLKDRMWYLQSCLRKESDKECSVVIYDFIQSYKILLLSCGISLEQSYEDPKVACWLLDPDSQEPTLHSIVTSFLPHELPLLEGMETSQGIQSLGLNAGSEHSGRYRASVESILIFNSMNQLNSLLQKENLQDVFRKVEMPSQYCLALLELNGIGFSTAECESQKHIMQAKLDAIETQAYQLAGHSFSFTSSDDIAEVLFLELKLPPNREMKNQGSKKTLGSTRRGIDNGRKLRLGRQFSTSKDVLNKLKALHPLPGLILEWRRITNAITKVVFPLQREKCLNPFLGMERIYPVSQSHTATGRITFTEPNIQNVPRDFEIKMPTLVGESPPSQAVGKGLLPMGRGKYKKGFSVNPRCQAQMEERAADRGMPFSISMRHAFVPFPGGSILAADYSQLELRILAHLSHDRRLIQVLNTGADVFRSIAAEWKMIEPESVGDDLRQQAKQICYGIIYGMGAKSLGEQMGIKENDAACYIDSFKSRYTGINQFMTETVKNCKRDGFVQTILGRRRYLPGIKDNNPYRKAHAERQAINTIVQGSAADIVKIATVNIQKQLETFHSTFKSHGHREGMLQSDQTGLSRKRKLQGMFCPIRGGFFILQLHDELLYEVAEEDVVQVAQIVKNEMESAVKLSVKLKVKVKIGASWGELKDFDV
Mode: inhibitor
Concentration: 77 µM
| SMILES | remaining activity |
| --- | --- |
| COc1ccc2cc([C@@H](C)C(=O)O)ccc2c1 | 90.6% |
| OCCOCCN1CCN(C2=Nc3ccccc3Sc3ccccc32)CC1 | 80.5% |
| CNCCC[C@]12CC[C@H](c3ccccc31)c1ccccc12 | 101% |
| O=C1CN(/N=C/c2ccc([N+](=O)[O-])o2)C(=O)N1 | 101% |

Sample 4
Compound: CCc1ccccc1C(=O)Nc1n[nH]c2c(C)c(F)c(C3C(C#N)=C(C)N(C)C(C)=C3C#N)cc12
Method: competition with immobilised ligand
Concentration: 1 µM
| target | effect on | remaining binding |
| --- | --- | --- |
| Ephrin type-A receptor 4 (EPHA4, Homo sapiens, UniProt P54764) | cell-free assay | 100% |
| NT-3 growth factor receptor (NTRK3, Homo sapiens, UniProt Q16288) | cell-free assay | 100% |
| Tyrosine-protein kinase Lck (LCK, Homo sapiens, UniProt P06239) | binding | 100% |
| Myosin light chain kinase (MYLK3, Homo sapiens, UniProt Q32MK0) | cell-free assay | 100% |
| Serine/threonine-protein kinase 32B (STK32B, Homo sapiens, UniProt Q9NY57) | cell-free assay | 98% |
| Serine/threonine-protein kinase PLK4 (PLK4, Homo sapiens, UniProt O00444) | cell-free assay | 100% |
| Mitogen-activated protein kinase 8 (MAPK8, Homo sapiens, UniProt P45983) | cell-free assay | 71% |
| Phosphatidylinositol 4,5-bisphosphate 3-kinase catalytic subunit alpha isoform (PIK3CA, Homo sapiens, UniProt P42336, M1043I) | cell-free assay | 75% |
| Tyrosine-protein kinase ABL1, non-phosphorylated (ABL1, Homo sapiens, UniProt P00519, F317I) | binding | 100% |

For quick reference, copied from above (sample 2):
| Structure (SMILES) | remaining activity |
| --- | --- |
| COc1ccc(CNC(=O)Nc2ncc([N+](=O)[O-])s2)cc1 | 96.4% |
| Cn1c2ccccc2c2c3c(c4c5ccccc5n(CCC#N)c4c21)CNC3=O | 96.7% |
| COc1cc2nccc(Oc3ccc(NC(=S)NC(=O)c4ccccc4C)cc3)c2cc1OC | 91.5% |
